Assay results gathered from unrelated publications.
Each numbered part is a random draw from the data of one study; scales do not carry over between parts. Several values in a cell are separate wells, animals, samples, runs or records.
Sequence of UniProt Q9C0B0 (30-357, looked up): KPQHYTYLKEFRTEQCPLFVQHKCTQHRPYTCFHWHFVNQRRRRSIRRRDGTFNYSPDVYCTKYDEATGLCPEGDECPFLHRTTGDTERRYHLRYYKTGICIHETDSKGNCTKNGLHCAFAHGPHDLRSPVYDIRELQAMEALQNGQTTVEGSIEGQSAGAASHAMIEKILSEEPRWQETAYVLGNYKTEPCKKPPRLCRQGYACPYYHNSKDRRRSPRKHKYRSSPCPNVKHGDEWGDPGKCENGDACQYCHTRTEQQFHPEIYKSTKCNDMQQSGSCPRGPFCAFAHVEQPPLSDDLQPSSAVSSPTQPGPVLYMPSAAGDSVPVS

Series 1
Target: Histone acetyltransferase KAT6A, winged helix 2, GST fusion (KAT6A, Homo sapiens, UniProt Q92794, residues 85-181)
Method: protein binding microarray
Molecule type: double-stranded DNA, one strand shown
Sample: in vitro
Tested at: not given
Setting: 8-mer, flanks averaged, mean of 2 arrays, mostly near background
Baseline: not given
Reading: higher = stronger binding
Quantity: E-score
Construct (chain): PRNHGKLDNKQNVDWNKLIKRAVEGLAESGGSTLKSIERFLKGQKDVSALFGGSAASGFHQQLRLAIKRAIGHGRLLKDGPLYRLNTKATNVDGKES
Strand = AAGCGTCC; value = 0.00584
Strand = AACTACGT; value = -0.186
Strand = GGAACAGA; value = 0.00229
Strand = CAGCTTTC; value = 0.0254
Strand = CGAATTGA; value = 0.0459
Strand = ATCGATGG; value = -0.0648
Strand = GGTTGGCA; value = 0.0354
Strand = AAAAACAT; value = -0.143

Series 2
Target: Transcriptional repressor CTCF (CTCF, Homo sapiens, UniProt P49711, residues 1-727, full length assumed)
Sequence of UniProt P49711 (whole entry, looked up): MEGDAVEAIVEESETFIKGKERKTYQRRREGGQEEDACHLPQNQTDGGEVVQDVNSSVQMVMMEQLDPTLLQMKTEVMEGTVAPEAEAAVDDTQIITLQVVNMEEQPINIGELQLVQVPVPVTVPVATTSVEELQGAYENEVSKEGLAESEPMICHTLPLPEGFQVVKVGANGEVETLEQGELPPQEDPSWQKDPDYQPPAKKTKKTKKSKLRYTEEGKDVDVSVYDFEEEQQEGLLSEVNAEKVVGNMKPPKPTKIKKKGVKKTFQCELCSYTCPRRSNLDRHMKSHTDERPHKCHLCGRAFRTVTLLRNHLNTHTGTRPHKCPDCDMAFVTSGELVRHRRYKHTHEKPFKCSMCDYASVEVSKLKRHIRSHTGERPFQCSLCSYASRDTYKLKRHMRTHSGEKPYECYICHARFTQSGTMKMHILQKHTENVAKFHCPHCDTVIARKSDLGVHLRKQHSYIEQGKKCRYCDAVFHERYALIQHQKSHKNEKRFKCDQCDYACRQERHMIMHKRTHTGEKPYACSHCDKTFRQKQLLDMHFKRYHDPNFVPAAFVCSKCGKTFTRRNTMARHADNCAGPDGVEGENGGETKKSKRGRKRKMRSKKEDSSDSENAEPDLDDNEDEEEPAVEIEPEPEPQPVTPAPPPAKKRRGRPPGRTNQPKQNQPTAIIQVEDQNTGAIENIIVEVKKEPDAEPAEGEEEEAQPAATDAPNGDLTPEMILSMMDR
Method: protein-binding microarray
Molecule type: double-stranded DNA, one strand shown
Sample: in vitro
Tested at: not given
Setting: k-mer, scored over probes, only values ≥0.25
Reading: higher = stronger binding
Quantity: E-score
Strand = GAAATGAA; value = 0.292
Strand = ACACCACT; value = 0.268
Strand = TGCGCTAA; value = 0.277
Strand = CATATACG; value = 0.287
Strand = ATTGAATA; value = 0.253
Strand = AATAACAT; value = 0.355
Strand = TACGCGCA; value = 0.32

Other studies, line by line
Molecule = GGGAGUUCUACAGUCCGACGAUCACUUCUCCAGAUGGAAGUUCAGAAAAACAAUCCCAAGGAGAAAUUGACUUUUCUUUUGUGUAUCUGGCCCAUCCUCGAGCAGUAAAUGGAUUUUCCUGGCGUAAAACAAGCAAAUAUAUGCAACAGAGGAUUGAGCAUCA; target = RING finger protein unkempt homolog, zinc fingers 1-6, GST-SBP tag (UNK, Homo sapiens, UniProt Q9C0B0, residues 30-357); test = RNA Bind-n-Seq; test system = RNA, in vitro; conditions = not given, RNA with constant flanks, human and mouse sites, ends assumed; scale = baseline: input RNA pool, higher = stronger binding; quantity = bound/input enrichment; value = 0.193 ratio
Molecule = PhoQ, residues 284 288 289 292 302 303 AANNSF; target = PhoP, residues 12 14 15 18 19 LWHSL (Escherichia coli, UniProt P23836); test = Sort-seq, item: YFP reporter; test system = E. coli; conditions = PhoQ-PhoP variant library, with: 10 µM Mg2+; scale = baseline: high Mg2+ state, higher = stronger signaling; quantity = fold induction; value = 18 and 8.15

Some of these lines once more (series 1):
Strand = AAAAACAT; value = -0.143
Strand = ATCGATGG; value = -0.0648
Strand = AACTACGT; value = -0.186
